Published values pooled from the literature.
Every numbered part comes from another study and shows a few of its results, in no order.

Sample 1 — method: RNAcompete; form: RNA; sample: in vitro; tested at: 20 nM; notes: 7-mer, probes averaged, single round; reference: mean of 7-mers; reading: higher = stronger binding
Target: PABPC1L2, full length, GST fusion (mouse, UniProt A0ABA7IW68)
Residues (chain): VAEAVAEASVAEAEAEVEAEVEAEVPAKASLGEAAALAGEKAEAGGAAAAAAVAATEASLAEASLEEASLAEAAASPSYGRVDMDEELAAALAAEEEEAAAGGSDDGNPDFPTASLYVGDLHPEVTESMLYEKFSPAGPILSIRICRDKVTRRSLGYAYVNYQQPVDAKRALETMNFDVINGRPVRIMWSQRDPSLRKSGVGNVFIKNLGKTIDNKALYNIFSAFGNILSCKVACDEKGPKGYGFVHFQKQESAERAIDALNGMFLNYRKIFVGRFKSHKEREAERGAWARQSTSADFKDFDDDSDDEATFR
Oligonucleotide	7-mer Z-score
UGCAAGU	-0.206
CAUGUAG	-0.0482
AGCAUUC	-0.161
UCUGCCC	-0.322
UAUGCUG	-0.17
GUUCAGC	-0.262
CCUAUUG	-0.333
AUGCAAA	0.428
CGUCGCC	-0.414
CGUACCC	-0.349
CUCGAAA	0.222
UUUCGAC	-0.255
AUUUACC	0.0805
GGACCUG	-0.126
CGCGGGG	0.294
CACGAUG	-0.0591
GGAUGCC	0.0134
ACGAUGU	-0.161
AUGCACU	-0.204
CUACACA	-0.0554
CUGGUGA	-0.11
GGAGGAG	0.247
ACCCACC	-0.264

Sample 2 — method: universal PBM; form: double-stranded DNA, one strand shown; sample: in vitro; tested at: 600 nM; reading: higher = stronger binding
Target: Sal-like protein 4, full length isoform A (SALL4, Homo sapiens, UniProt Q9UJQ4, residues 1-1053)
UniProt Q9UJQ4, sequence (whole entry, looked up): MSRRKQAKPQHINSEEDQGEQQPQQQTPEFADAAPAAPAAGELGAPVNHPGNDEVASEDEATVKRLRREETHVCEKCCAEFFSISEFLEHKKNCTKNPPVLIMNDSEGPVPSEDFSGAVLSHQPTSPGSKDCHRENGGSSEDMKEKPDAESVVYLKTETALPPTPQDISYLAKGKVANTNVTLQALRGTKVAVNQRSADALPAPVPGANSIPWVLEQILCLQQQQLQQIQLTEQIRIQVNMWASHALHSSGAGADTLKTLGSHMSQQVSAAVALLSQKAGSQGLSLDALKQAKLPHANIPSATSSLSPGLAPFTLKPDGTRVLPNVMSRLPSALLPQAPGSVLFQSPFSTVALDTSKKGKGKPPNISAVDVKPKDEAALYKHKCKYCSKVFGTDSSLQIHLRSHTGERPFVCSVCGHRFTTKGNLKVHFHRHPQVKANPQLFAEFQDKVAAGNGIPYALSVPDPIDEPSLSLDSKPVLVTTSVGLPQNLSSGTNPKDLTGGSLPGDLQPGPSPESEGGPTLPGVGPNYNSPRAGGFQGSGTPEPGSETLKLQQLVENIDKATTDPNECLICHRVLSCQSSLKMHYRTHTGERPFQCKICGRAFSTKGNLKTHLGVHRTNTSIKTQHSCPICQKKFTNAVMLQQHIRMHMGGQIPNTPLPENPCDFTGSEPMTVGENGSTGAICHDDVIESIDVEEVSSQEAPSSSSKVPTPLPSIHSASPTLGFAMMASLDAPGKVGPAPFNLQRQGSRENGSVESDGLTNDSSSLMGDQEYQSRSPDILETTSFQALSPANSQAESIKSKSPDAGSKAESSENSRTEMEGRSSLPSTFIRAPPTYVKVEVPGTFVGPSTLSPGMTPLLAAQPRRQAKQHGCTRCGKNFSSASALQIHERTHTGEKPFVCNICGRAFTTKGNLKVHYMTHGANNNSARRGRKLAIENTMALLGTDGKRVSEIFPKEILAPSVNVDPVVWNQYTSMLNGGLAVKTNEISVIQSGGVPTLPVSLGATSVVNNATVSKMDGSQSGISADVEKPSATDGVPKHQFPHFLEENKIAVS
Notes: 8-mer, flanks averaged, mean of replicates
Oligonucleotide	E-score
CGCATGTA	-0.0965
CCTTTGAG	-0.18
AGGAAGCC	-0.172
ACATAGTG	0.125
CAGGATAA	0.0647
ACAGTGGG	-0.263
CGACGCAC	-0.0445
AGGTGGCC	-0.272
CGTGTAGC	-0.13
GATGAGGA	-0.00649
AGTTCTGC	-0.0139
AGAACTTG	0.107
ACGAATCA	0.0834
CATGTTGA	0.264
ACCATCAC	0.0201
CTAATTAC	0.135
ATGCCACG	-0.11
CTTTCGAA	0.0781
AACAATCC	0.176
ACGAAAGG	0.058
TAAGGATA	0.167
AGCCTCAG	-0.219
AAAGGTCT	0.0192
AGCCGTAA	0.0214
GGGTGGTA	-0.158

Sample 3 — method: RNA Bind-n-Seq; form: RNA; sample: in vitro; tested at: 365 nM; reference: no-protein control; reading: higher = stronger binding
Target: RNA binding protein fox-1 homolog 2, RRM domain, GST-SBP tag (RBFOX2, Homo sapiens, UniProt O43251-10, residues 100-194)
Notes: natural RNA segment, single round, ends assumed
All sequences stand within: GGGAGUUCUACAGUCCGACGAUC … UGGAAUUCUCGGGUGCCAA
Residues (chain): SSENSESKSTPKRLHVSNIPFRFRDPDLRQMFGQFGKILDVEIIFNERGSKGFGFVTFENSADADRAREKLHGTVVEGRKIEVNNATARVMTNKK
Oligonucleotide	RBNS enrichment (R)
CAUAAGUCCAUUUGGCCAAGUCAGCCUGUGUGCUACUGAACUGUCAAGAGAUUGCCACUCUCAUAGGUAAACAUGAGGAAAACAGGAAAAGUUUGCUUCUUUUUAUUGAU	0.251
GGAUAUUUGGGUGGGACAGACAGAAGACACACAGCUGCCUGUUCUCUCCUGCCCAUCAUGUUUGGCCCACUAGAUGAAGCUGUACUCAGCAAUUUAGGGAAUGUAACCCU	0.332
GGCCCUGCUAGCGAGAGAGGUCAACCCCGGUGGCCAGGGAACCCACUUCCAAGCGCAGGGACGCCGGCCUCCAGCUGGUGUGUGCUAAGGCUCCGUCCUGACUGCCCUGU	0.516
AGGACCACAGUGAACAAGAGCACUUCCAAUCCCAUGCAGAGGGCAAGAGGCAGAAUCCACCAAAGGCCUUGAACUACCCAUGCUGGGGAAAAGCAUAAAGGGCUGCCUAG	1.53
UUUAAGAACAUUUAUUUCCCCUUUUCACUUUAAAAAAUUAUGAUUAUUCCUAUUAUUGUUAUGAACCUUCUUAUUUUACAUUUGAGGGAUAAAGGCAAAUGAUUUGUGAG	0.546
GGCUCCAGCCUAUGCCGUCCUGAAGAGCAUUAUCCAGGCCGGAUGCAGAGUGGCGAUAUAUUUAUCAGAAAGAUUAUAAAGUGUGUCCAGUUUUGCCUGUCUAUAAAAGA	0.474
CACUGAGAUCCAGAGAGGCUGGAUGACUUGCUCAAGUUCACCAGCAUGGUAGUGGCAAAGAGAGGUCCAGAGUCCUGGCCCUUGAUGCCCAGCUCAGUGCCACAAAGCUC	1.85
UGAGCAUCCUCUCACCAGACUAUGCCCUCCUGGAGGGGCUGGGAAUAUAGCAAGAACGAAAAGACUGUGCAAGGCCUAGAGCCAGCAAAGAUGCUGAUGUAGCCAGGCCA	1.07
AUAAUAAAUGAAGAUGCCUAAAAUAGUGUUCCAAACUUUCAUGGUCAUUUUCAUUUUUACUGAAACAAAUUCAAAAGAACAGUCUUGGUUCCCCAAAUCACUUCAAUCUC	0.376
CUUUUUUUAAUUGUUAAAUUGAAUUUUAUACCAAUGUUUAAACUUAAAUUGGGUGUUAGCUUGAGGUGUUUUGGGGGAGUUUGUUGUAAUGGUUUUGCUGUAAACUGUGU	0.782
CUGUGGCCCUUUUUUGAAGCUACUCUGACAUGUCCCAGAGCCCAAGGUUCUCAUUUCUCAGGUGGUGGGACUAGACAGAGGGAGUGGCAAGCUCAGGGAAGGAUCAUUUC	0.25
CUGAUUUCUUAUCUGGAAAUGGUACACUGAAUUCUCUGGGUGGCUUUCUUGUGGCCCCAUGGGAUGCAGCGUGGGGGCUGUCUGAAGGACCCUGCUUUUUCCAGGGGCCG	0.407

Sample 4 — method: protein binding microarray; form: double-stranded DNA, one strand shown; sample: in vitro; tested at: not given; reference: not given; reading: higher = stronger binding
Target: Histone acetyltransferase KAT6A, winged helix 1, GST fusion (KAT6A, Homo sapiens, UniProt Q92794, residues 1-85)
Notes: 8-mer, flanks averaged, mean of 2 arrays, mostly near background
Residues (chain): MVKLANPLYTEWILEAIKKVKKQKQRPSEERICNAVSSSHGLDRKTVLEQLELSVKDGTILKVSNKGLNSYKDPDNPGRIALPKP
Oligonucleotide	E-score
AAGGCTGC	-0.0695
CTTAGCCA	-0.0993
CACGCTGC	0.156
CGCCCGAG	0.223
TTCCTAAA	-0.318
ATTTACGA	-0.122
CCCGATCG	0.221
TACGGTGA	0.0978
CAATACTA	-0.123
CCTCCCAA	-0.208
CGGCGTCC	0.355
CTAGGCAG	-0.151
ATAAAGGC	-0.153
CGGAAGCC	0.294
CTTGGTGC	-0.128
AATCTCAT	-0.13
AACCGTAG	0.0691
ACCGATGC	0.122
CTCACACC	-0.0836
GCAGGGAC	-0.0687
TAATCCTA	0.0234
ACGGTTAG	0.122
ATTCGCCG	0.276
CACCCACA	-0.144
ATTCGCGC	0.392

Sample 5 — method: RNA Bind-n-Seq; form: RNA; sample: in vitro; tested at: 200 nM; notes: whole 134-nt RNA, ends assumed; added: 150 mM LiCl; reference: input library; reading: higher = stronger binding; library: 7-deaza-guanosine replaces G
Target: Ras GTPase-activating protein-binding protein 1, full length (G3BP1, Homo sapiens, UniProt Q13283)
UniProt Q13283, sequence (whole entry, looked up): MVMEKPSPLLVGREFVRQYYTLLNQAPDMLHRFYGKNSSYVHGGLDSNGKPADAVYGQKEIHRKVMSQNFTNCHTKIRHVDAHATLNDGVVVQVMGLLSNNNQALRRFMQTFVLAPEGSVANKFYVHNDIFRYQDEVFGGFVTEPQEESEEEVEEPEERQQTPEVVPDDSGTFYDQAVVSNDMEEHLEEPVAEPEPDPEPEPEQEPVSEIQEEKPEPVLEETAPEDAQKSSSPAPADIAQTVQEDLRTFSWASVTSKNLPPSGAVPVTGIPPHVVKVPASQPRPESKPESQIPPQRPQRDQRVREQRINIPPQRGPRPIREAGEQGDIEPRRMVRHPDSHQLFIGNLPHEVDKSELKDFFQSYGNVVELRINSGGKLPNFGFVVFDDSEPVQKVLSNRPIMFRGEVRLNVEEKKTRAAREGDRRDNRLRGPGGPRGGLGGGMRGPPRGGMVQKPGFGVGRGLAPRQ
All sequences stand within: GGGAGUUCUACAGUCCGACGAUC … UGGAAUUCUCGGGUGUCAAGG
Oligonucleotide	log2 enrichment
UCCUGUGCUACACAUCGUAUGUACCGAAUCGGGGAAAGGGGUUUGGGGUUUUUUUGGGGAAAGUAUUAUGUUACGCCGUUCGGAUCUGCA	-0.113
UCAAGUCCUGUGCUACACAUCGUAUGUACCGAAUCGGGGAAGGGGAAGGGAAGGGAAAGUAUUAUGUUACGCCGUUCGGAUCUGCACUUC	-0.256
GUCCUGUGCUACACAUCGUAUGUACCGAAUCAAACCCAAAUUUUUUUAAAUUUUUAAAAAAGUAUUAUGUUACGCCGUUCGGAUCUGCAC	-1.48
AGUCCUGUGCUACACAUCGUAUGUACCGAAUCGGGAAAGGGUUUUUGGGAAAAAGGGAAAGUAUUAUGUUACGCCGUUCGGAUCUGCACU	-1.11
GUCCUGUGCUACACAUCGUAUGUACCGAAUCGGGGAAAAAAAGGGGAAAGGGGAGGGGAAAGUAUUAUGUUACGCCGUUCGGAUCUGCAC	0.317
ACCAUGCAGGUGGGCAUCUUUGGGAAGUGGGGCAAGGGGGGGAUAGGGAGGGGGGUAACACUUAAAGAACAGGUGGUCCCAGGUCGUUUC	-4.47e-05
GUCCUGUGCUACACAUCGUAUGUACCGAAUCGGAAAAAAAGGAAAAAGGAAAAAAAGGAAAGUAUUAUGUUACGCCGUUCGGAUCUGCAC	-0.741
UCAAGUCCUGUGCUACACAUCGUAUGUACCGAAUCGGAAGGGAAGGGGAAGGGGAAAGUAUUAUGUUACGCCGUUCGGAUCUGCACUUCC	-0.342
AAGUCCUGUGCUACACAUCGUAUGUACCGAAUCGGAAAAAAAGGAAAAAAAGGUGGAAAGUAUUAUGUUACGCCGUUCGGAUCUGCACUU	-1.36
CUCAAGUCCUGUGCUACACAUCGUAUGUACCGAAUCGGGUUUGGUUUGGUUUGGAAAGUAUUAUGUUACGCCGUUCGGAUCUGCACUUCC	0.177
AGUCCUGUGCUACACAUCGUAUGUACCGAAUCGGGAAAAAAAGGGUUUGGGUUUGGGAAAGUAUUAUGUUACGCCGUUCGGAUCUGCACU	-1.71

Sample 6 — method: RNA Bind-n-Seq; form: RNA; sample: in vitro; tested at: not given; notes: RNA with constant flanks, ends assumed; reference: input RNA pool; reading: higher = stronger binding
Target: RING finger protein unkempt homolog, zinc fingers 1-6, GST-SBP tag (UNK, Homo sapiens, UniProt Q9C0B0, residues 30-357)
All sequences stand within: GGGAGUUCUACAGUCCGACGAUC … CAACAGAGGAUUGAGCAUCA
Target sequence (chain): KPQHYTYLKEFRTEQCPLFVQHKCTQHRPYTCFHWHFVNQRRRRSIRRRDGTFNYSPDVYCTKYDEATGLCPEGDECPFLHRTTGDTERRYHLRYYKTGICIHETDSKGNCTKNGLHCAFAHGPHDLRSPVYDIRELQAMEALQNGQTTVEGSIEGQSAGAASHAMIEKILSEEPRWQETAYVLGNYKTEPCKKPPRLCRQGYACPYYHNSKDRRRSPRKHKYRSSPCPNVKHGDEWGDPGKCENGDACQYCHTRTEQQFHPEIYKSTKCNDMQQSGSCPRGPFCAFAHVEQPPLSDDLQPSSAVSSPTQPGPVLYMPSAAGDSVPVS
Oligonucleotide	bound/input enrichment [ratio]
UAUGAAGUGUAUAGUUCCUCAGCAGGACCUGCGGUCAGACAUAAGUGCCUUAGAGCAAUUCUCCGGAUAAUUUAUUUUGCGGAUGCUGAACUUCUGAAGGAUGUUCUGAAAAAUCAUGCU	0.472
UGGGUGAUGGAGGAAAUGAGAGAGGAAUGCUCUUGAAAGGUGGUCUGUGGAUCUGUCUGAACCGAAAGAGCACAGUAAGUAUGCAUUGCCGGAGAAAACGUCCUUGAAGCUGCUUGUCUC	0.115
CUGUGUAGUCGCAGUGACACUAUCGAUACUGUUUCUGUGCCUUAUGUUUUUCGGUAUUUUGCCGCUGAACUGGCAGCUAUGAACAUCAAAGUGAAACUGGAUGUUGUUUAACUUGAUGUU	0.249
ACUUUUCCAUGCAGAGUUGUGCACAUGGGAGAGGGUAUCCGGUUUGUCCAGUGAUUGUUCUUCCGAGAGUUGGACCACUAUAUUGUGUGUUUGCUAAUCAUUGACUGUAGUCCCAAAAAA	0.287
CUCCAGACACAAGUGGCUGAGAUGUCCCGAGUCAUACGUGAUCUGCAGUCCAGGAGUUGUUUCCGAUUUCAUCAUUCUAGGCCAAGUGAGAGCUCGUCAGUUCCUUGGGAUAUCUCCAGC	0.278
CUGAGGAACAAUCUCCGCAGCAUAGAGUGGGAUCUGGAGGACCUCGAUGAAACCAUCAGCACCGUUGAAGCAAAUCCUAGAAAAUUCAACUUGGAUGCAACUGAAUUGAGCAUAAGAAAA	0.302
AUGAGAAACAGUAUCUUAGCCCAAGUUCUGGAUCAGUCAGCCCGGGCCAGAUUAAGUAACUCCGCACUUGUAAAGCCUGAAAAAACUAAAGCAGUGGAGAACUACCUUAUACAGAUGGCG	0.189
GCAGUAGCCAGAGGAUGUGCAUUACAGUGUGCAAUACUUUCCCCGGCAUUUAAAGUCCGAGAAUUUUCCGUCACAGAUGCAGUUCCUUUUCCAAUAUCUCUGAUCUGGAACCAUGAUUCA	0.082
AAAAGAAAUUUCCAGCUAACAUUUUUAAAUCAUGAUGUUGUCAAAAUCUCUCCAAAAUCAGUCCGAAAUAAGCUUUUGGAAAGUCAAAGUAAAAAGAAAAUUCAUGGAAAGAGGGUGACA	0.42
GGGCGCGGCGUCCGGGUGGCGCUCGCCACUCGGGCGGUGGCGCGGGCGCCCAGGGCAGACACCCGGGUAAUCCGGAGGCGCGGCCCUGGAAUUAGACCGACAGCGGGGCUGAGGCUGAGG	0.747
UUUACAACGCACCAAGAACAUUCUAUUCGCAGAAAUUUCUUAAAAACAGGUACUAAAUUCCGCAACUUUAUUCACGAAGAACACCAGUCCAAUGGGGGUGCUCUUGUCCUUCAUGCAUAC	0.233

Repeated from above (sample 2):
Oligonucleotide	E-score
AGAACTTG	0.107
ACCATCAC	0.0201
ACGAATCA	0.0834
CGTGTAGC	-0.13
CTTTCGAA	0.0781
CATGTTGA	0.264
AACAATCC	0.176
